Experimental data gathered from unrelated publications.
Numbers after ± are the reported error.
Cell line: MCF7

For `O=C(c1ccc2ccccc2c1)c1cn(-c2ccccc2)nc1C1=Nn2c(SCCSc3nnc4n3N=C(c3nn(-c5ccccc5)cc3C(=O)c3ccc5ccccc5c3)CS4)nnc2SC1`, the IC50 was 7.69 µM (cell growth or viability, MTT; 48 h).
`CC1=NN(c2ccccc2)C(=O)C1=C1Sc2nc3ccc(S(=O)(=O)N4CCCC4)cc3nc2S1` has an IC50 of 85.7 ± 4.3 µM (cell growth; 24 h).
`Cc1ccc(-n2c(SCC(=O)NNC(=O)Nc3ccc(Cl)cc3)nc3ccccc3c2=O)cc1` has an IC50 of 18.2 µM (cell growth or viability, MTT).
For `Cc1nc2ccccc2n(CC(=O)Nc2ccc(C(=O)Nc3ccc(O)cc3)cc2)c1=O`, the IC50 was 17.9 µM (cell growth or viability, MTT).
For `COc1ccc(/C=C\c2cc(OC)c(OC)c(OC)c2)cc1O`, the IC50 was 0.021 ± 0.004 µM (cell growth, sulforhodamine B).
`CCOc1nc2c(c(-c3ccc(Cl)cc3)c(C#N)c(=O)n2C2CCCCC2)c(=O)[nH]1` has an IC50 of 9.6 µM (cell growth or viability, MTT).
The IC50 of `O=C(CSc1nc2ccccc2c(=O)n1-c1ccc(Cl)cc1)NNC(=O)Nc1ccc(Cl)cc1` is reported as 36.3 µM (cell growth or viability, MTT).
For `CC(=O)c1nn(-c2ccccc2Cl)/c(=N/N=C(\C)c2ccc(NC(=O)c3cccnc3)cc2)s1`, the IC50 was 7.09 ± 0.5 µM (cytotoxicity, MTT; 24 h).
For `CC/C(=C(\c1ccccc1)c1ccc(OCCN(C)C(=O)CCCCOc2ccc3[nH]cc(CCNC(C)=O)c3c2)cc1)c1ccccc1`, the IC50 was 13 µM (cell survival, MTT; day 9, dosed days 2, 4, 7).
With `CN1CCC2(CC1)C/C(=N\N=C\c1ccc(Cl)cc1)c1ccccc1O2` the IC50 was 8.74 µM (cell growth or viability, MTT; 48 h).
`COc1ccc(-n2c(SCC(=O)NNC(=O)Nc3ccc(Cl)cc3)nc3ccccc3c2=O)cc1` has an IC50 of 55.5 µM (cell growth or viability, MTT).
`O=S(=O)(Sc1ccc(Cl)cc1)c1ccc(Cl)cc1` has an IC50 of 10 µM (cell growth, sulforhodamine B).
`N#CC(C(=O)Nc1nnc(NC(=O)c2ccccc2)s1)=C1Nc2ccccc2N1` has an IC50 of 84.7 µM (cell growth or viability, MTT; 48 h).
For `CC(=O)/C=C(O)/C=C/c1ccc(O)c(O)c1`, the IC50 was less than 10 µM (cell growth or viability, MTT; 72 h).
With `N#Cc1c(-c2ccc(Cl)cc2)c2c(=O)[nH]c(=S)[nH]c2n(C2CCCCC2)c1=O` the IC50 was 1.4 µM (cell growth or viability, MTT).
For `N#CC(C(=O)Nc1nnc(NC(=O)c2ccccc2)s1)C(=S)Nc1ccccc1` (stereo not shown), the IC50 was 19.6 µM (cell growth or viability, MTT; 48 h).
For `NCCCNc1n[n+]([O-])c2ccccc2[n+]1[O-]`, the IC50 was 170 ± 4 µM (cytotoxicity, MTT; 24 h, normoxia).
`C=CCc1ccc(O)c(-c2ccc(O)c(CC=C)c2)c1` gave an IC50 of 2.51 µM (cell proliferation, MTS; 72 h, with: 10 µM BLM).
For `[O-][n+]1nc(NCCNc2n[n+]([O-])c3ccccc3[n+]2[O-])nc2ccccc21`, the IC50 was greater than 70 µM (cytotoxicity, MTT; 24 h, normoxia).
`COc1cc(C=C(C#N)C(=O)Nc2nnc(NC(=O)c3ccccc3)s2)ccc1O` has an IC50 of 13.6 µM (cell growth or viability, MTT; 48 h).
For `CC(C)c1cnn2c(NCc3ccccc3)cc(NCCCCCCN)nc12`, the IC50 was 15 µM (immunoblotting; 4 h).
`O=C(Nc1nnc(NC(=O)c2cc3ccccc3oc2=O)s1)c1ccccc1` has an IC50 of 64.1 µM (cell growth or viability, MTT; 48 h).
`CC(=O)O[C@H]1C(=O)O[C@@H]2C[C@H]3C(C)=CC(=O)[C@@H](O)[C@]3(C)[C@H]3[C@]4(O)OC[C@]32[C@@H]1[C@@H](C)[C@H]4O` gave an IC50 of 11 µM (cell growth or viability; 24 h).
The IC50 of `NCCNc1n[n+]([O-])c2ccccc2[n+]1[O-]` is reported as 33.4 ± 9.4 µM (cytotoxicity, MTT; 10% FBS medium; 6 h + 18 h, hypoxia 3% O2).
`N#CC(C(=O)Nc1cccc(C(F)(F)F)c1)=C1Sc2nc3ccc(S(=O)(=O)N4CCCC4)cc3nc2S1` has an IC50 of no more than 8.78 µM (cell growth; 24 h).
For `CC[C@H](CC[C@@H](C)[C@H]1CC[C@H]2[C@@H]3CC=C4C[C@@H](O)CC[C@]4(C)[C@H]3CC[C@]12C)C(C)C`, the IC50 was 188 µg/mL (cell growth or viability, resazurin; 24 h).
The IC50 of `Cc1nc2ccccc2n(CC(=O)Nc2ccc(C(=O)Nc3cccc(Cl)c3)cc2)c1=O` is reported as 2.3 µM (cell growth, MTT).
`N#CC(=Cc1ccco1)C(=O)Nc1nnc(NC(=O)c2ccccc2)s1` has an IC50 of 28.1 µM (cell growth or viability, MTT; 48 h).
For `CCCCNC(=O)c1ccc(NC(=O)CSc2nc3ccccc3nc2C)cc1`, the IC50 was 62.1 µM (cell growth or viability, MTT).
The IC50 of `CN(C)C/C=C/C(=O)Nc1cc2c(Nc3ccc(F)c(Cl)c3)ncnc2cc1O[C@H]1CCOC1` is reported as 11.6 µM (cell growth or viability, MTT; 72 h).
For `N#Cc1c(-c2ccc(Cl)cc2)c2c(=O)[nH]cnc2n(C2CCCCC2)c1=O`, the IC50 was 3.15 µM (cell growth or viability, MTT).
`O=C(c1ccc2ccccc2c1)c1cn(-c2ccccc2)nc1C(=O)CBr` has an IC50 of 13.2 µM (cell growth or viability, MTT; 48 h).
`N=c1oc2ccccc2cc1C(=O)Nc1nnc(NC(=O)c2ccccc2)s1` gave an IC50 of 8.25 µM (cell growth or viability, MTT; 48 h).
For `Brc1ccc(SSc2ccc(Br)cc2)cc1`, the IC50 was greater than 10 µM (cell growth or viability, SRB).
With `C=CCc1ccc(OCc2nn(CN3CCOCC3)c(=S)o2)c(OC)c1` the IC50 was 1.71 µM (cell growth or viability, MTT; 72 h).
For `NCCCCCNc1n[n+]([O-])c2ccccc2[n+]1[O-]`, the IC50 was greater than 76 µM (cytotoxicity, MTT; 24 h, normoxia).
`COc1ccc(-n2c(SCC(=O)NNC(=O)NCc3ccccc3)nc3ccccc3c2=O)cc1` has an IC50 of 82.8 µM (cell growth or viability, MTT).
For `NCCCCCCNc1n[n+]([O-])c2ccccc2[n+]1[O-]`, the IC50 was 110 ± 9.4 µM (cytotoxicity, MTT; 10% FBS medium; 6 h + 18 h, hypoxia 3% O2).
The IC50 of `CC(C)c1nc(N(C)S(C)(=O)=O)nc(-c2ccc(F)cc2)c1/C=C/[C@@H](O)C[C@@H](O)CC(=O)O` is reported as 1.49 µM (cell growth, SRB; 72 h).
The IC50 of `Brc1ccccc1SSc1ccccc1Br` is reported as greater than 10 µM (cell growth or viability, SRB).
`COc1ccc(-n2c(SCC(=O)NNC(=O)Nc3ccccc3)nc3ccccc3c2=O)cc1` gave an IC50 of 6.39 µM (cell growth or viability, MTT).
With `COc1cccc2c1C(=O)c1c(O)c3c(c(O)c1C2=O)C[C@@](O)(C(=O)CO)C[C@@H]3O[C@H]1C[C@H](N)[C@H](O)[C@H](C)O1` the IC50 was 17.2 µM (cell growth or viability, MTT; 48 h).
For `O=C(CSc1nc2ccccc2c(=O)n1-c1ccc(Cl)cc1)NNC(=O)Nc1ccccc1`, the IC50 was 12.5 µM (cell growth or viability, MTT).
`[O-][n+]1nc(NCCCCCCCNc2n[n+]([O-])c3ccccc3[n+]2[O-])nc2ccccc21` gave an IC50 of greater than 30 µM (cytotoxicity, MTT; 24 h, normoxia).
`COc1cc(-c2cc(-c3ccc(Cl)cc3)[nH]c(=O)c2C#N)ccc1O` gave an IC50 of 6.17 µM (cell growth or viability, MTT).
`O=S(=O)(Sc1cccc(F)c1)c1cccc(F)c1` gave an IC50 of greater than 10 µM (cell growth, sulforhodamine B).
The IC50 of `COc1ccc(-c2cc(-c3ccc(Cl)cc3)c3c(=O)[nH]c(=O)[nH]c3n2)cc1` is reported as less than 5 µM (cell growth or viability, MTT; 48 h).
For `CCC(O)CC(=O)O[C@@H]1C[C@@H]2[C@@]3(C)CCC[C@](C)(CC)[C@@H]3CC[C@@]2(C)[C@@H]2C[C@@H](O)C3=C(C(=O)O[C@H]3C)[C@@]12C` (stereo partly shown), the IC50 was no more than 25 µM (cell growth or viability, CCK-8; 24 h).
The IC50 of `[O-][n+]1nc(NCCCCCCNc2n[n+]([O-])c3ccccc3[n+]2[O-])nc2ccccc21` is reported as greater than 30 µM (cytotoxicity, MTT; 24 h, normoxia).
